Measurements pooled from the literature.
Protocols differ between the studies behind these lines. Values joined by “and” are separate records of one study, mostly repeats; a detail may differ.
B1: abpA 1-195 (Streptococcus gordonii, UniProt A8AZZ3); sequence looked up; chain MKKVLLSSVVALTLFAAAAPVFSADEATDAARNNDGAYYLQTQFTNADKVNEYLAQHDGEIRAEAAADPAVVAAKAALDAVEGGSHNYGEVKAAYEAAFNNAFNAVRNKYVQQFQATYNNATEQEGKTYIQGETPEQANARYLKRVGAANNQNPAAEDKGATTPASKEEAKKSEAAAKNAGKAAGKALPKTSAVK
Sequence of UniProt P02751 (whole entry, looked up): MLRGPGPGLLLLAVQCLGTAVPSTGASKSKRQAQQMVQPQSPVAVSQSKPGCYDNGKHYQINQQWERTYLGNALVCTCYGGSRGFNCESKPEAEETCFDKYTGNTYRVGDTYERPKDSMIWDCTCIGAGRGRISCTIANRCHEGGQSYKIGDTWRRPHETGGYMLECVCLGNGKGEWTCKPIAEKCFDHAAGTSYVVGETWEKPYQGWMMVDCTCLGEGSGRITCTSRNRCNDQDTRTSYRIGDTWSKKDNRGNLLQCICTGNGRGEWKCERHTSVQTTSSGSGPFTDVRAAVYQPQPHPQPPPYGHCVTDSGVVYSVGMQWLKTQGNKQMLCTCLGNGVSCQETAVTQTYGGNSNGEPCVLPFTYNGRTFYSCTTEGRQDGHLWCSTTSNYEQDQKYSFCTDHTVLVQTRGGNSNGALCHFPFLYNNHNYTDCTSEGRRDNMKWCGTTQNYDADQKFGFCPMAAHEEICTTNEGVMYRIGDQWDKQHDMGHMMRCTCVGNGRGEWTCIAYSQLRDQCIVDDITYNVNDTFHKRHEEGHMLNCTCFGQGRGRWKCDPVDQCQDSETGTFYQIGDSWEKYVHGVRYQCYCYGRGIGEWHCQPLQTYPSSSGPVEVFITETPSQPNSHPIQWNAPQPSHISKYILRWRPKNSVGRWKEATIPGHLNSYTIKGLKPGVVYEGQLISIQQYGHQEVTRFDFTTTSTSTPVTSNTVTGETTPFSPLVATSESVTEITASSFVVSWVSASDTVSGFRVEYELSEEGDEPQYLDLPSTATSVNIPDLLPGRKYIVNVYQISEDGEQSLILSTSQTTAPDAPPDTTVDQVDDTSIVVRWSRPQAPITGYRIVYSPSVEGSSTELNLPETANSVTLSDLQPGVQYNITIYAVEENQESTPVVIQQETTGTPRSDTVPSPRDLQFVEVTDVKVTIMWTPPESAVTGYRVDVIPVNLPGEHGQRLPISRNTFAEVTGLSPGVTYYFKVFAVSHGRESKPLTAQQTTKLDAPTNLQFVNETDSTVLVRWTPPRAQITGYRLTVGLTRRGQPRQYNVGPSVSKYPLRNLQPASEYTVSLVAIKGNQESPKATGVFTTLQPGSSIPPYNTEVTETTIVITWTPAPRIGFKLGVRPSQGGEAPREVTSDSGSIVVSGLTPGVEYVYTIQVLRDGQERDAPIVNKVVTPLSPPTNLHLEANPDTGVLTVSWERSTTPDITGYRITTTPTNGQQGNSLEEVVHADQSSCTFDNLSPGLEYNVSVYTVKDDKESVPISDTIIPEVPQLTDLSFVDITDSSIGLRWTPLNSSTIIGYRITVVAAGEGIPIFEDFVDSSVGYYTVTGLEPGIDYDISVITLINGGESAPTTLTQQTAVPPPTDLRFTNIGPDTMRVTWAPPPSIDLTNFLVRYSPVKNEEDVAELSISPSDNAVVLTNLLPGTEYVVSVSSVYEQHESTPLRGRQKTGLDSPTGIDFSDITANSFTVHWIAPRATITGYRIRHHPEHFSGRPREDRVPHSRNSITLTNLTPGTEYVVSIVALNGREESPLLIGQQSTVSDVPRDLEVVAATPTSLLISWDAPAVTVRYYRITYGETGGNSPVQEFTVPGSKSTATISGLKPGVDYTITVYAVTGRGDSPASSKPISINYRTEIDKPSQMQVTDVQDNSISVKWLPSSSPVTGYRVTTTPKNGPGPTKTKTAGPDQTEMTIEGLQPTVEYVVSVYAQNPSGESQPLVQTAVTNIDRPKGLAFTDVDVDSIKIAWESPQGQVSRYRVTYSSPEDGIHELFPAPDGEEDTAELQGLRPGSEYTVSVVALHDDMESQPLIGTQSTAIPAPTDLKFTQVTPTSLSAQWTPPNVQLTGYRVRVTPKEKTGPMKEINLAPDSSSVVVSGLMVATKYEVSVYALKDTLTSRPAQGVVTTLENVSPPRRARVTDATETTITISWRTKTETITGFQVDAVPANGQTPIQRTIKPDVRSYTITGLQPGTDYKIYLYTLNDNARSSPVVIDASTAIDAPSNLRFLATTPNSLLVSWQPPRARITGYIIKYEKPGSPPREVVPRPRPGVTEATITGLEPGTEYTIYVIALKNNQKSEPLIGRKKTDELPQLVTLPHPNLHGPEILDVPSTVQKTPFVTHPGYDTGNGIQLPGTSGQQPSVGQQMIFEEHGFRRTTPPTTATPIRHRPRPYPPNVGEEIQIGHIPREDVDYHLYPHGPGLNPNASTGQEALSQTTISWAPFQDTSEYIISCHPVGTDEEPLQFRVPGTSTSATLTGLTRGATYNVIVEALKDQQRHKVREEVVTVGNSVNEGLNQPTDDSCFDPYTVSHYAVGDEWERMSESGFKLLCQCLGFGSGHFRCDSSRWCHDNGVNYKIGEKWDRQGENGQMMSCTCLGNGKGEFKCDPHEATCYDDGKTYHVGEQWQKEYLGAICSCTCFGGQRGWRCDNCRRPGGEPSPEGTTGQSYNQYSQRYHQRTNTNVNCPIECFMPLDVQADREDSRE
Sequence of UniProt P0DUB6 (whole entry, unmodified, looked up): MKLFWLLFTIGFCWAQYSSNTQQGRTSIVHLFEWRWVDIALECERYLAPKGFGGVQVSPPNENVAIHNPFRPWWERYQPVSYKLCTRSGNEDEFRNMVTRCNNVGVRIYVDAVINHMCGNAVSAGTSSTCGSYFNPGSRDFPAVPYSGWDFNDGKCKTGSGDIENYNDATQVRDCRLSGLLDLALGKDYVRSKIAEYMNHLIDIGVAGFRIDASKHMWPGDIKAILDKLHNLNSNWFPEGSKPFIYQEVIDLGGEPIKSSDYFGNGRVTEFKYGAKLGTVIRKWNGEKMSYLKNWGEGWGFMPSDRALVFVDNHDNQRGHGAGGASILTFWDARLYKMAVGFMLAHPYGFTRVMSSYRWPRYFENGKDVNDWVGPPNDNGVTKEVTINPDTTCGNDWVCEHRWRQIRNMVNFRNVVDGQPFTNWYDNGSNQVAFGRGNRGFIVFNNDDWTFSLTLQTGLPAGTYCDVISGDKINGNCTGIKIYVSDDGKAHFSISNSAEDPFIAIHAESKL
Sequence of UniProt P06400 (whole entry, unmodified, looked up): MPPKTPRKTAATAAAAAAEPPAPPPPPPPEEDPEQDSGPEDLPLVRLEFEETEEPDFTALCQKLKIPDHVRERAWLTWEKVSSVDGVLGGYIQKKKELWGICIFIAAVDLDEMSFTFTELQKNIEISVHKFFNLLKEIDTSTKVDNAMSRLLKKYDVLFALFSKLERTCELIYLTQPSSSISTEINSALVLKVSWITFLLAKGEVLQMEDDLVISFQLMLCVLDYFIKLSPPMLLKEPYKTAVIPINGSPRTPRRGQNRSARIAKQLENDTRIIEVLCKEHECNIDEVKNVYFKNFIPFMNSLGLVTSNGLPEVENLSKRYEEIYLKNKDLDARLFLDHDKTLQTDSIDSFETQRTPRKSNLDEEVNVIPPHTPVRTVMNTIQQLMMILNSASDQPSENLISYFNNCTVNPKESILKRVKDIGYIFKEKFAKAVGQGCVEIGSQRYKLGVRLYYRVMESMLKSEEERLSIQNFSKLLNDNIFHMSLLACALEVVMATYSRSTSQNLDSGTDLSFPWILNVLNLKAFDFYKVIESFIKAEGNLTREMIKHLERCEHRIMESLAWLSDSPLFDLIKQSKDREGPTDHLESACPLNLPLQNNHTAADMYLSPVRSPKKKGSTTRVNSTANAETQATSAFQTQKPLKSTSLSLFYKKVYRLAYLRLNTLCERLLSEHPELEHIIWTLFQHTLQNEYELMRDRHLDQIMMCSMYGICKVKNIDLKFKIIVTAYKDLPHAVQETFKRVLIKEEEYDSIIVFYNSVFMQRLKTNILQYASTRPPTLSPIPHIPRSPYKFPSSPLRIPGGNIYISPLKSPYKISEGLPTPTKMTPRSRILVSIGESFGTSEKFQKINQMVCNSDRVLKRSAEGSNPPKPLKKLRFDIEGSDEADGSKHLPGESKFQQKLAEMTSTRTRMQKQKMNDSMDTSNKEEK

Molecule | tested on | assay | test system | conditions | scale | quantity | result
H-RNPHLMGIGGGLAGESGETTPK-OH (fnz 370-391 (Streptococcus zooepidemicus)) | FN1 516-608, N-glycans trimmed to GlcNAc (Homo sapiens, UniProt P02751) | ITC | peptide | pH 7.4, 25 °C, one-site fit |  | Kd | 10.9 µM
COc1ncc(-c2cn([C@@H]3O[C@](F)(CO[P@@](=O)(N[C@@H](C)C(=O)OC(C)C)Oc4ccccc4)[C@@H](O)[C@H]3O)cn2)c(OC)n1 | Zaire ebolavirus | viral replication, reporter virus | Huh-7 | 72 h |  | IC50 | > 100 µM
quinacrine mustard | West Nile virus | viral replication, Rluc reporter replicon | Vero with WNV replicon | 50 µM, 24 h |  | inhibition | 99.8%
Oc1ccc2ccccc2c1N=Nc1ccccn1 | MERS-CoV spike VSV pseudovirus | pseudovirus entry |  | 10 µM |  | inhibition | 61%
E1A Motif-linker-motif domain (bat adenovirus) | RB1 AB domain 372-787 del582-642 (Homo sapiens, UniProt P06400) | E2F displacement, fluorescence polarisation |  |  | relative to: wild-type E1A, higher = weaker binding | relative KD | 1.5
CC(C)C(=O)OC[C@@]1(F)O[C@@H](n2cnc(-c3cnc(N)[nH]c3=O)c2)[C@H](OC(=O)C(C)C)[C@@H]1OC(=O)C(C)C | Zaire ebolavirus | viral replication, reporter virus | Huh-7 | 72 h |  | IC50 | 86.8 µM
COc1cc2ncnc(Nc3cccc(Cl)c3)c2cc1OC | Monkeypox virus | viral infection | replication-deficient | 11.11 µM | relative to: untreated | infection | 1.92% and 1.79% and 1.81%
B1 (abpA 1-195) | AMY1A mature W134A/W203A/Y276A/W284A/W316A/W388A (Homo sapiens, UniProt P0DUB6) | SPR |  | apparent |  | koff | 0.017 s⁻¹

For quick reference, copied from above:
Molecule | tested on | assay | test system | conditions | scale | quantity | result
COc1cc2ncnc(Nc3cccc(Cl)c3)c2cc1OC | Monkeypox virus | viral infection | replication-deficient | 11.11 µM | relative to: untreated | infection | 1.92% and 1.79% and 1.81%
